Assay results from different studies.
Each numbered part is a random draw from the data of one study; scales do not carry over between parts.

Series 1
Target: Interferon regulatory factor 3, full length, phosphomimetic (IRF3, Homo sapiens, UniProt Q14653, residues 1-427, S386D/S396D/S398D/S402D/T404D/S405D)
Technique: protein-binding microarray
Molecule type: double-stranded DNA, one strand shown
Sample: in vitro
Concentration: 2540 nM top
Notes: 60-bp whole probe
With: salmon DNA 0.4 mg/ml
Reference: random background probes
Reading: higher = stronger binding
All sequences stand within: GCCTAGCAC … GTCTTGATTCGCTTGACGCTGCTG
Target sequence (chain): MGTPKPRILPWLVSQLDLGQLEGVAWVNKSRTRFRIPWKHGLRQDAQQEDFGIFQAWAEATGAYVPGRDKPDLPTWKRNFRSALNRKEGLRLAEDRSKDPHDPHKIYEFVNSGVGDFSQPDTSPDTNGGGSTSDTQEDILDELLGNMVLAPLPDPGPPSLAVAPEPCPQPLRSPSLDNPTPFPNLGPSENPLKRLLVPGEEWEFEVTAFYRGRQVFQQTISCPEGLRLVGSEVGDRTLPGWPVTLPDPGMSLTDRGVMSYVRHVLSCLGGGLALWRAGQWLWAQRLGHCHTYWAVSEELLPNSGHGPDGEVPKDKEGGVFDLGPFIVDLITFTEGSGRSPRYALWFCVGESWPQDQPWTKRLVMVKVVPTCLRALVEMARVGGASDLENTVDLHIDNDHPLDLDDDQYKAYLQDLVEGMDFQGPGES
Oligonucleotide | fitted relative affinity
ATGAGACTGTCACATCCCTGGTGCTAG | -0.453 z-score
GACGAACTGAGTATCGAGTCGTGCTAG | 0.242 z-score
GACGATATCCTTTTCCTGACGTGCTAG | 4.64 z-score
GTCGGTTTCGACTATCGGGACGTGCTA | 4.19 z-score
TTAGGTTCCCTTTCCCTTTAGTGCTAG | 8.03 z-score
GACGATCTCAGACTGGAGGCGTGCTAG | 0.229 z-score
TTAGGTATCGGGACCGGGTTAGTGCTA | 1.07 z-score
GACGAACGGAGTATCGAGACGTGCTAG | -0.00376 z-score
GACGGTTTCGACACTGGGTACGTGCTA | 3.23 z-score
GACGGTATCGGGTTTCGCGACGTGCTA | 2.55 z-score
TTAGGTACCGGGTTTCGGTTAGTGCTA | 2.93 z-score
TCAATACTGATTTCCACACTGTGCTAG | 0.941 z-score
GACGAATTCAGACTGGAGACGTGCTAG | 0.264 z-score
CTGCTGCAGGCAGCACGCTGGTGCTAG | -0.539 z-score
GACGATTTCGGGTTTCTAGACGTGCTA | 2.61 z-score
GACGGTCTCCTACTGTTGACGTGCTAG | 1.07 z-score
TTAGATTTCGTGTTTCGATTAGTGCTA | 2.19 z-score
ACTAGCTTCCATTTTCTGAAGTGCTAG | 2.49 z-score
TACGGTTCCCTTTTCCTGACGTGCTAG | 6.24 z-score
GACCGTATCCTTATCCTGACGTGCTAG | 4.44 z-score
GCTCCAGGAAGCCTTGCCTGGTGCTAG | -0.809 z-score

Series 2
Target: Ras GTPase-activating protein-binding protein 1, full length (G3BP1, Homo sapiens, UniProt Q13283)
Chain of UniProt Q13283 (whole entry, looked up): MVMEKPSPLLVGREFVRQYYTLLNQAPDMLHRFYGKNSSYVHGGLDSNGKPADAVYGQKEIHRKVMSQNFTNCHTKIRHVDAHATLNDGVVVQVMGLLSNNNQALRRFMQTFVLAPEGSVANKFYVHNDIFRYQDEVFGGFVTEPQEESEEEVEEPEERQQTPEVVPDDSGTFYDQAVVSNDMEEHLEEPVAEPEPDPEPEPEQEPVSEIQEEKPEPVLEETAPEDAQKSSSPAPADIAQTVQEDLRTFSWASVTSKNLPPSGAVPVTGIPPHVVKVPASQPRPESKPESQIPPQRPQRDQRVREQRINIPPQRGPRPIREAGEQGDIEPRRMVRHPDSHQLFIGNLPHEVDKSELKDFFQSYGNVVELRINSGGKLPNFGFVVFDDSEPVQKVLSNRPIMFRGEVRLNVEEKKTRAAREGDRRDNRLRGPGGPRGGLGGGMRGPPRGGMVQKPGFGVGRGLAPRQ
Technique: RNA Bind-n-Seq
Molecule type: RNA
Sample: in vitro
Concentration: 200 nM
Notes: whole 134-nt RNA, ends assumed
With: 150 mM LiCl
Reference: input library
Reading: higher = stronger binding
Each molecule: 7-deaza-guanosine replaces G
All sequences stand within: GGGAGUUCUACAGUCCGACGAUC … UGGAAUUCUCGGGUGUCAAGG
Oligonucleotide | log2 enrichment
AGUCCUGUGCUACACAUCGUAUGUACCGAAUCGGGUUUUUGGUUUUUGGUUUUUGGGAAAGUAUUAUGUUACGCCGUUCGGAUCUGCACU | -1.15
AAGUCCUGUGCUACACAUCGUAUGUACCGAAUCGGCCCCGGGCCCCGGGCCCCGGGGAAAGUAUUAUGUUACGCCGUUCGGAUCUGCACU | -1.22
GUCCUGUGCUACACAUCGUAUGUACCGAAUCGGGGAAAAAGGGAAAAAGGGGAAAAAGGAAAGUAUUAUGUUACGCCGUUCGGAUCUGCA | -0.0403
AAGUCCUGUGCUACACAUCGUAUGUACCGAAUCGGGCCCGGGGCCCGGGGCCCGGGAAAGUAUUAUGUUACGCCGUUCGGAUCUGCACUU | -1.27
UAACUUUAGAGGAGGAUCUGAUGGAUAUGGCAGUGGACGUGGAUUUGGGGAUGGCUAUAAUAGGUAUGGAGGAGGACCUGGAGGUGGCAA | -0.208
AGUCCUGUGCUACACAUCGUAUGUACCGAAUCGGGGUUUUGGGUUUUGGUUUUGGGGAAAGUAUUAUGUUACGCCGUUCGGAUCUGCACU | -0.836
AGUCCUGUGCUACACAUCGUAUGUACCGAAUCGGGGUUUUUUUGGGGAGGGGUGGGGAAAGUAUUAUGUUACGCCGUUCGGAUCUGCACU | -0.0324
ACUGAUGAGAGCCUGAGGAGCCAUUUUGAGCAAUGGGGAACGCUCACGGACUGUGUGGUAAGAUUUGGAAGGGACAAAGCAGUAAAACAG | 0.321
UGAAAAUUCUCGACUGGCUGCUGAGGUUUACAAAGACAUGCCGGAAACCAGCUUUACUCGAACCAUUUCUAAUCCUGAGGUGGUUAUGAA | -2.13
GUCCUGUGCUACACAUCGUAUGUACCGAAUCGGGGUUUGGGGUUUUUUUGGGGUGGGGAAAGUAUUAUGUUACGCCGUUCGGAUCUGCAC | -0.19
UGUCAGGAUUAUGAAGAAGCUGUGCUCUUGCUGUUAGAAGGAGCUGCCUGGGAAGAAGCUUUGAGGCUGGUAAGAAUCUUGUAAAUCCUC | -1.03

Series 3
Target: RING finger protein unkempt homolog, zinc fingers 1-6, GST-SBP tag (UNK, Homo sapiens, UniProt Q9C0B0, residues 30-357)
Chain of UniProt Q9C0B0 (30-357, looked up): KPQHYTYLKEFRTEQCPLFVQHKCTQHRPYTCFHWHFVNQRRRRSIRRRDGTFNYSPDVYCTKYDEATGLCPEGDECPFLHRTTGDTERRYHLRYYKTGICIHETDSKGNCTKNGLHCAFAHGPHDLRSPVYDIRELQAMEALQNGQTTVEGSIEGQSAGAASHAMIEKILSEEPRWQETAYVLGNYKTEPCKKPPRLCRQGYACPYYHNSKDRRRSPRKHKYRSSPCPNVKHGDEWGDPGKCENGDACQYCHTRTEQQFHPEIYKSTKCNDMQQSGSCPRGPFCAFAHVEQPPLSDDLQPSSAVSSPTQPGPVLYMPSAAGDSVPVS
Technique: RNA Bind-n-Seq
Molecule type: RNA
Sample: in vitro
Concentration: not given
Notes: RNA with constant flanks, ends assumed
Reference: input RNA pool
Reading: higher = stronger binding
All sequences stand within: GGGAGUUCUACAGUCCGACGAUC … CAACAGAGGAUUGAGCAUCA
Oligonucleotide | bound/input enrichment
GUUCAAAUAUUAUGUGAAUGUUGUUAAGAAAACAGACUGUAAUUUACCCUAGUAAACCCGCCGUAAUGUCAAGAUUCAAACCUAGGUGUACUCAAAAAUCAGCUCUCUAGUGUUAAGUCC | 0.592 ratio
UUAGGCACAGCUGACAUGGCCACUUUCAUGGUCAAUUCACUAUAUAUGAUGAAGACAACAUCCGCUCUAUUUGAAUUCACUGACAGACGUCUGGAAAUGCUACAGUUUCAGAUCGAAGCA | 0.347 ratio
AUCCAGGCAGCUGACAGCACAGCCGUGAAUGGCAGCAUCACACCCACAGACAAAAAGACCGGAUUUUUGGGCCUUGGUCUCAUGGGAAGUGGAAUCGUCUCCAACUUGCUAAAAAUGGGU | 0.14 ratio
GGAAAUAACAAUCAAAAUAAACCAGGGUUCUUACGAAAGAAUCAGUAUACAAACACCAAAUCCGAAGUCAAGAAAAUCCCUCAGGAAUUGAACAACAUUACCAAGCUCAAUGAACACUUC | 0.219 ratio
CAUGAAGGAACACUGGAUGACUUUACAGUUUUAAACAGACGCAAAAAGGUAGCCAGCAAUGCCGCAUCAGCAGUGAAAAGGCCAUUUAAUUUCAUGGCAAAUUUUCCUUGUCCACCUUCA | 0.164 ratio
CACCCUAUAGAGGUAGUUGUCACACACACACACACACACACACACACACUGUUCACUUCCCCGCUCCUUUCCCCUCCACCUUUCUUUCAGAGUUUGUUCUCAUUUUUCAGAAUUCUUCUG | 2.58 ratio
GGGUGGGGGUUGUCAUUGCCAAUUGAGCUGCUGAUUCUUAUGAAUCACAUUCAGAACUCGCACCGGGUUGACACUGUAAGGGGUGGGGAAAUCUAGCUAUUUUUUUUUCCCCAGCCCAUU | 0.419 ratio
UUUGUUACCUAACCAACCUUCACUGAAAGGCAAAUUUAGUUCAGGAGGUUAGUUUUCCGCCCGCUUUGGAAGUAAGCCUUUAUUUAUUACUUUUUGGAGGAAAUCAGAGAAGUGUCAAUG | 0.349 ratio
CAUCAUUAUGCCUAUAAUGUGCCGCUUUGUGAUUGGGCAUUUGCCUACUUUUCUUUCAUAAUCCGUGAUAUAUGCGAUGUAAAACCACUAGUAAAGGUACAUUUUAAUACUUGUUAUUUU | 0.264 ratio
AUAAUAAAAGCCUCCAGCAAAGACGCCAUCAGGCUCUUGGAUUCUGUGCCUCCCACUGCCAUCCGCCAUUUCAAGCAGUCAGCUGAGAAGCUGAUUGAGGAGAAGGGAGCUGUAGAGGCC | 0.229 ratio
GGACCGUGCCCUAGAAUUUGCCCCUGCCUGCCAUCGCUUCAAAAUCCUCAAGGCAGAAUGUUCCGCAAUGCUGGGUCGUUAUCCAGAAGCACAGUCUGUGGCUAGUGACAUUCUACGAAU | 0.25 ratio

Series 4
Target: Histone acetyltransferase KAT6A, winged helix 2, GST fusion (KAT6A, Homo sapiens, UniProt Q92794, residues 85-181)
Technique: protein binding microarray
Molecule type: double-stranded DNA, one strand shown
Sample: in vitro
Concentration: not given
Notes: 8-mer, flanks averaged, mean of 2 arrays, mostly near background
Reference: not given
Reading: higher = stronger binding
Construct (chain): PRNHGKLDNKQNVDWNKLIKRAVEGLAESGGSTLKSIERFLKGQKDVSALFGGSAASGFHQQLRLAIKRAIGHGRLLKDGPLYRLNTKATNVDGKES
Oligonucleotide | E-score
TCTCTCCA | -0.0703
ATAGTAGC | 0.00559
GTTCAAAA | -0.0201
AGTGCGGG | 0.2
AACCCCAG | -0.0725
ACTTACGG | -0.118
TATTTCCA | -0.026
AACCAACC | 0.0493
GGTAAACC | -0.0679
AGTTATCC | -0.0887
ATCACTCG | -0.152
GATTCCCA | -0.065
ATCGATGA | -0.0437
AAGGGATT | -0.0229
CTAAATCC | 0.0327
CCCCTATC | -0.0955
GCTGTACC | 0.0848
CATGCCAC | 0.0101

Series 5
Target: Prothrombin, mature alpha-thrombin (F2, Homo sapiens, UniProt P00734)
Technique: aptamer microarray, sandwich
Molecule type: DNA with 2'F-ANA
Sample: in vitro
Concentration: 200 nM
Notes: whole 15-mer aptamer, many near background
With: Cy3 exosite-II aptamer, 400 nM
Reading: higher = stronger binding
Oligonucleotide: GGTTGGTGTGGTTGG
Modification | mean fluorescence intensity [a.u.]
2'F-ANA at 1 2 3 4 5 8 9 10 11 15 | 54
2'F-ANA at 2 3 5 6 8 12 14 15 | 59.8
2'F-ANA at 1 6 7 9 11 14 15 | 53.3
2'F-ANA at 1 6 7 10 13 | 61.1
2'F-ANA at 1 2 3 6 9 10 14 | 52.9
2'F-ANA at 5 7 10 | 47.8
2'F-ANA at 2 4 6 9 10 12 14 | 62.9
2'F-ANA at 1 2 4 7 9 14 | 50.3
2'F-ANA at 2 3 4 7 8 10 11 13 14 | 179
2'F-ANA at 1 3 4 5 6 12 | 100
2'F-ANA at 1 4 6 7 11 14 15 | 51.1
2'F-ANA at 3 5 7 8 9 13 15 | 107
2'F-ANA at 6 10 11 13 14 | 134
2'F-ANA at 3 4 6 8 12 14 15 | 334
2'F-ANA at 1 3 4 7 12 15 | 484
2'F-ANA at 1 5 6 7 9 11 12 13 | 65.1
2'F-ANA at 2 4 7 9 11 12 13 14 15 | 99.2
2'F-ANA at 1 3 4 8 12 13 15 | 372
2'F-ANA at 1 2 3 8 10 11 14 | 53.8
2'F-ANA at 1 2 3 7 9 10 11 12 13 | 292
2'F-ANA at 2 6 7 8 10 11 13 | 103
2'F-ANA at 1 3 4 5 6 7 10 11 15 | 49.7
2'F-ANA at 1 2 5 6 7 8 10 11 13 15 | 48.8
2'F-ANA at 1 3 4 5 6 7 9 10 13 14 15 | 48.9
2'F-ANA at 2 6 7 8 10 13 15 | 99.9
